Published values collected from several papers.
Compare with care: the assays were run in different laboratories. ± gives the spread as reported.
Target: Alpha-glucosidase MAL12 (MAL12, Saccharomyces cerevisiae S288c, UniProt P53341)
UniProt P53341, sequence (whole entry, looked up): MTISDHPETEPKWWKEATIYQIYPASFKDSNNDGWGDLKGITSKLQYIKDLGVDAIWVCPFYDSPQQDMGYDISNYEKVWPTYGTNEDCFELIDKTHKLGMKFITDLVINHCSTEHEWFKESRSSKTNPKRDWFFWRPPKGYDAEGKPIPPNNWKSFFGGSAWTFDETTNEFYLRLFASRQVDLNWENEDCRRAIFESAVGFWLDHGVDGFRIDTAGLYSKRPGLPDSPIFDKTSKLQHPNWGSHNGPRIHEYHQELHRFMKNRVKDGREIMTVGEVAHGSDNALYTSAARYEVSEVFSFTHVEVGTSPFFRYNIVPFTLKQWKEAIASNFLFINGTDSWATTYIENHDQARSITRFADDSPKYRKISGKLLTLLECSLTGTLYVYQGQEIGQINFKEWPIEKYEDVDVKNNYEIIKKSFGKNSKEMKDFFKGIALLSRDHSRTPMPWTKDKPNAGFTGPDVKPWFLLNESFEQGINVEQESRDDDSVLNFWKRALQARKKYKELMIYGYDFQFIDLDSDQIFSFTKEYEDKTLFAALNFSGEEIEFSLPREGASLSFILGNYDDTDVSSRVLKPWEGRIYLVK
Read-out: enzyme activity
Action: inhibitor

SMILES | assay | system | setting | IC50 [µM]
O=C1C(=O)N(CCOc2ccccc2)c2ccc(Br)cc21 |  |  |  | 41.5
C=CC1C(OC2OC(CO)C(O)C(O)C2O)OC=C2C(=O)OC(OC)CC21 (stereo not drawn) |  |  | added: p-nitrophenyl glucoside | > 100
O=C1C(=O)N(CCOc2ccc(Cl)cc2)c2ccc(Cl)cc21 |  |  |  | 61.8
COc1cc(/C=C/C(=O)O)ccc1O |  |  |  | 98.4
O=C(/C=C/c1ccc(O)c2c1[C@H](C(=O)O[C@H](Cc1ccc(O)c(O)c1)C(=O)O)[C@@H](c1ccc(O)c(O)c1)O2)O[C@H](Cc1ccc(O)c(O)c1)C(=O)O |  | Saccharomyces cerevisiae |  | > 100
COc1ccc(/C=N/N=C(c2ccc(N(C)C)cc2)c2ccc(N(C)C)cc2)c(OC)c1 |  |  | pH 6.8, 37 °C, added: p-nitrophenyl alpha-D-glucopyranoside | 0.38 ± 2.27
CC1=CC(=O)OC2(C)CC(O)CC(C)(C(=O)O)C2(O)C=C1 (stereo not drawn) | absorbance |  |  | > 100
CN(C)c1ccc(C(=N/N=C/c2ccc3ccccc3c2)c2ccc(N(C)C)cc2)cc1 |  |  | pH 6.8, 37 °C, added: p-nitrophenyl alpha-D-glucopyranoside | 0.43 ± 2.39
COc1ccc(-c2c(C(F)(F)F)oc3c(Cn4nc(C)cc4C)c(O)ccc3c2=O)cc1 |  |  | pH 6.8 | 21.2 ± 0.7
O=C1O[C@H](c2ccc(O)cc2)Cc2cc(O)cc(O)c21 | absorbance |  |  | > 100
O=C(C=Cc1ccc(O)c(O)c1)OC1CC(O)(C(=O)O)CC(O)C1OC(=O)C=Cc1ccc(O)c(O)c1 (stereo not drawn) | absorbance |  |  | 498
O=C(O)c1c(O)cccc1/C=C/c1ccc(O)cc1 | absorbance |  |  | > 100
O=C1C(=O)N(CCOc2ccc(Br)cc2)c2ccc(Br)cc21 |  |  |  | 16.2
O=c1ccc2cc(O[C@@H]3O[C@H](CO)[C@@H](O)[C@H](O)[C@H]3O)c(O[C@@H]3O[C@H](CO)[C@@H](O)[C@H](O)[C@H]3O)cc2o1 | absorbance |  |  | > 100
COc1cc(/C=N/N=C(c2ccc(N(C)C)cc2)c2ccc(N(C)C)cc2)cc(OC)c1OC |  |  | pH 6.8, 37 °C, added: p-nitrophenyl alpha-D-glucopyranoside | 0.36 ± 2.69

For quick reference, copied from above:
SMILES | assay | system | setting | IC50 [µM]
O=C1O[C@H](c2ccc(O)cc2)Cc2cc(O)cc(O)c21 | absorbance |  |  | > 100
O=C(C=Cc1ccc(O)c(O)c1)OC1CC(O)(C(=O)O)CC(O)C1OC(=O)C=Cc1ccc(O)c(O)c1 (stereo not drawn) | absorbance |  |  | 498
